Assay results collected from several papers.
Protocols differ between the studies behind these lines. ± marks the error that the study gave.

| Compound | tested on | assay | test system | conditions | how to read | endpoint | result |
| --- | --- | --- | --- | --- | --- | --- | --- |
| CN1CCCNC(=O)c2cccc(c2)C(=O)NCCCN(C)CCCNc2cccc3c2C(=O)c2cccc(c2C3=O)NCCC1 | SAS | RNA-Seq, measured: DDX19A mRNA | – | 1 µM, 6 h | relative to: untreated cells | log2 fold change | -0.982 |
| CNS(=O)(=O)Nc1nccc(Cc2c(C)c3ccc(Oc4ncccc4F)cc3oc2=O)c1F | CAL-51 | cell viability | – | 7 days | – | IC50 | > 1000 nM |
| O=C(N/N=C/c1cc[n+](Cc2ccccc2)c2ccccc12)C(=O)N/N=C/c1cc[n+](Cc2ccccc2)c2ccccc12 | myc22 MYC G4-DNA parallel | FRET melting | – | 1 µM, K1 buffer, DNA 0.2 µM | – | ΔTm | 5.1 ± 0.2 °C |
| COC1CN([C@H]2CC[C@H]([C@@]3(C)Oc4c(Cl)cc(C(=O)NCc5c(SC)cc(C)[nH]c5=O)c(C)c4O3)CC2)C1 | – | RNA-seq, measured: PPP1R9A mouse homolog | mouse, HT-1376 xenograft, whole blood | dose not given | relative to: vehicle | log2 fold change | 1.19 |
| C[n+]1cc(/C=N/NC(=O)c2ccc3ccc4ccc(C(=O)N/N=C/c5cc6ccccc6[n+](C)c5)nc4c3n2)cc2ccccc21 | myc22 MYC G4-DNA parallel | FRET melting | – | 1 µM, K1 buffer, DNA 0.2 µM | – | ΔTm | 18.5 ± 7.4 °C |
| NCCOCCO.O=C(O)C(Cl)Cl | Eclipta prostrata | – | – | 15 mg/mL, 21 days, post-emergence, greenhouse | – | herbicidal inhibition | 0% |
| O=C(N/N=C/c1ccc2c(ccc[n+]2Cc2ccccc2)c1)c1cccc(C(=O)N/N=C/c2ccc3c(ccc[n+]3Cc3ccccc3)c2)c1 | myc22 MYC G4-DNA parallel | FRET melting | – | 1 µM, K1 buffer, DNA 0.2 µM | – | ΔTm | 11.5 ± 0.3 °C |
| COc1ccc(C(=O)CCc2cc(C(CCc3ccc(O)cc3OC)c3ccc(O)cc3)c(O)cc2OC)cc1 (racemic) | – | – | human blood | 3 µM, added: A23187 | – | 20-OH-LTB4 level | 824 ± 253 pg/mL |
| C=C(NC(=O)c1csc(-c2nc3c(cc2O)-c2nc(cs2)C(=O)NC(C(C)O)C(=O)NC(=C(C)OC)c2nc(cs2)C(=O)NC2c4nc(cs4)C(=O)NC(COC(=O)c4c5c6c(cccc6n4O)COC(=O)C(OC4CC(C)(O)C(N(C)C)C(C)O4)C2OC5)c2nc-3cs2)n1)C(N)=O (stereo not drawn) | Streptococcus pneumoniae | – | ATCC 49619, immunocompromised mice, lung infection | qd dosing | – | lung bacterial load at ED50 | 5.49 log CFU/g |
| CCN(CC)CC(=O)Nc1cccc(-n2cc(-c3ccc4ccc(-c5cn(-c6cccc(NC(=O)CN(CC)CC)c6)nn5)cc4c3)nn2)c1 | RCC4 | PCR angiogenesis array, measured: FIGF | – | 5 x IC50, 6 h, normoxia | relative to: untreated | fold regulation | 2.66 |
| CC(C)c1ccc(N(C)c2ccc3c(c2)OCC[C@H]3CNc2cnccc2C(=O)O)cc1 | Caov-3 | cell growth or viability, ATP luminescence | – | 7 days | – | IC50 | 6.47 nM |
| CN1CCC[C@]1(C)/C=C/S(=O)(=O)NC(=O)Nc1c2c(cc3c1CCC3)CCC2 | – | – | human, whole blood ex vivo | 100 mg twice daily, day 19, 108 h, multiple ascending dose, added: LPS and ATP | – | IL-1β inhibition | 12% |
| COc1cc(O)ccc1CCC(c1ccc(O)cc1)c1cc2c(c(C)c1O)OC(c1ccc(O)cc1)CC2 (mixture of isomers) | – | – | human blood | 0.3 µM, added: A23187 | – | DHA level | 124000 ± 26300 pg/mL |
| Cc1ncsc1-c1ccc(C(C)NC(=O)C2CC(O)CN2C(=O)C(NC(=O)CCCCCCCCCCN2CCCC(Nc3ncc(Cl)c(Nc4ccccc4S(=O)(=O)C(C)C)n3)C2)C(C)(C)C)cc1 (stereo not drawn) | 22Rv1 | RNA-seq, measured: TRIM56 mRNA | – | concentration not given | relative to: DMSO | log2 fold change | -1.63 |
| O=C(N/N=C/c1ccc(C[n+]2ccccc2)cc1)c1cccc(C(=O)N/N=C/c2ccc(C[n+]3ccccc3)cc2)c1 | myc22 MYC G4-DNA parallel | FRET melting | – | 1 µM, K1 buffer, DNA 0.2 µM, added: ds26 10 µM | – | ΔTm | 2.2 ± 0.6 °C |
| CCN(C(=O)c1cc(F)ccc1Oc1nncnc1N1CCC2(C1)CN([C@H](CCCN(C)CCOC)C(C)C)C2)C(C)C | Calu-6 | cell growth or viability | – | 72 h | – | GI50 | > 10000 nM |
| O=C(Oc1cc(OC(=O)c2cc(O)c(O)c(O)c2)c2ccccc2c1)c1cc(O)c(O)c(O)c1 | herpes simplex virus 2 | plaque | Vero | 10 µM, added post infection | – | plaque reduction | ~40% |
| C[N+](C)(C)CCO.O=C([O-])C(Cl)Cl | Eclipta prostrata | – | – | 15 mg/mL, 21 days, post-emergence, greenhouse | – | herbicidal inhibition | 0% |
| Nc1ncc(-c2cc(-c3cnn(CC(F)(F)F)c3)ncc2F)nc1C(=O)NC1CNCC(F)C1 (stereo not drawn) | PAK3 | KINOMEscan | – | 1 µM | relative to: DMSO control | remaining binding | 13% |
| O=C(N/N=C/c1cc[n+](CC2CC2)c2ccccc12)c1cccc(C(=O)N/N=C/c2cc[n+](CC3CC3)c3ccccc23)n1 | myc22 MYC G4-DNA parallel | FRET melting | – | 1 µM, K1 buffer, DNA 0.2 µM, added: ds26 10 µM | – | ΔTm | 24.6 ± 0.5 °C |
| C=CC(=O)N1[C@@H](c2ccc3c(c2)OCO3)c2[nH]c3ccccc3c2C[C@H]1C(=O)N1CCN(C)CC1 | CCNE1 WT-3xFLAG:CDK2 complex | co-IP TMT proteomics, measured: PCM1 | HEK-293T | 20 µM, 6 h | relative to: DMSO | log2 fold change | -0.34 |
| C[n+]1cc(/C=N/NC(=O)c2cncc(C(=O)N/N=C/c3cc4ccccc4[n+](C)c3)n2)cc2ccccc21 | myc22 MYC G4-DNA parallel | FRET melting | – | 1 µM, K1 buffer, DNA 0.2 µM | – | ΔTm | 15.9 ± 0.2 °C |
| c1ccc(-c2n[nH]cc2-c2ccnc3ccccc23)nc1 | orf19.4518 Candida albicans | kinase binding, MIB/MS competition | Candida albicans lysate | 1 µM | relative to: DMSO | log2 fold change | -0.13 |
| C[n+]1ccc(/C=N/NC(=O)c2cccc(C(=O)N/N=C/c3cc[n+](C)cc3)c2)cc1 | myc22 MYC G4-DNA parallel | FRET melting | – | 1 µM, K1 buffer, DNA 0.2 µM | – | ΔTm | 2.8 ± 0.3 °C |
| C=CC(=O)Nc1cccc(Cn2ncc3cnc(Nc4cnn(CCOC)c4)nc32)c1 | FLT4 human | binding, KINOMEscan | – | 100 nM | lower = stronger binding | percent of control | 26% |
| CC(=O)[O-].O.O.O.O.[Mn+2].[O-]c1ccc(Br)cc1C=NCCN1CCOCC1 | – | superoxide scavenging | – | 120 µM | – | inhibition | 19.6% |
| O=C(N/N=C/c1ccc2c(ccc[n+]2Cc2ccccc2)c1)c1ccc2ccc3ccc(C(=O)N/N=C/c4ccc5c(ccc[n+]5Cc5ccccc5)c4)nc3c2n1 | myc22 MYC G4-DNA parallel | FRET melting | – | 1 µM, K1 buffer, DNA 0.2 µM | – | ΔTm | 24.4 ± 0.2 °C |
